# Experimental data gathered from unrelated publications.
# Each numbered part is a random draw from the data of one study; scales do not carry over between parts.

# Block 1
# Target: RNA binding protein fox-1 homolog 2, RRM domain, GST-SBP tag (RBFOX2, Homo sapiens, UniProt O43251-10, residues 100-194)
# Technique: RNA Bind-n-Seq
# Molecule type: RNA
# Medium: in vitro
# Tested at: 365 nM
# Setting: natural RNA segment, single round, ends assumed
# Relative to: no-protein control
# Reading: higher = stronger binding
# Constant ends, left off below: GGGAGUUCUACAGUCCGACGAUC … UGGAAUUCUCGGGUGCCAA
# Target sequence (chain): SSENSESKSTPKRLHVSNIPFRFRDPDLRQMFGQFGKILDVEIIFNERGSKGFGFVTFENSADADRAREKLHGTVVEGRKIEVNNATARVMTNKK
Sequence,RBNS enrichment (R)
CAUGGUGGUGGAUAUUUGGGUCUGUGAAAUCUGAAAAAAACAAAGGUCUAUUCGGAUUGCAUAGGGGUAUAUUAAUAUAUUUUAAACUCACCUAGAUUACACUCAAUUGA,0.488
GAUAUAUUUUUACAAUCCUGCAAACUUCCUUGAGUCACUCACGACUCCCCCUGAGGUCACUUCCUGGUAGUGUCCCAAUGCUCUGUGUGCAGUUACUUCAGGUUGAAGUU,0.393
AUAUUCCAUCGUUACAGGAUAGCGUUCGGUACACAGUGGCGGGUUUCUUUAGCUGCUGUGUUUAUUCUCAUUCCUCACACAUGCCUUUAAGUGCAUUGGACUCCAGGAGA,0.287
CUCUAAUCCUCAAACUAAGCCACCGUUUGGACUGCUAGUGUCACAGUUCGGGUGUUCCAUUGCACCCCUGUGCAGAUCUUUCCAGACUUGGCAACUUUACUUGGCUGAAU,0.229
GACCACGCUGAGCACUGGGCUCAGCCUCCCCUGUGGGCAGUGGGCGAACCCCACUUGGCAUGUGCCGAGCACACAGUUCCUGUGGUAGACUUUUCAGAGAACCCUUCUGU,0.492
AUGAUAGACAAAUACCCAGUGUUUGUUACUUUUUCCAACUACCACUGUAAUGAUAAUCUUUCUCACGUAUAUACAUGCAACUUCUUGGCUUCAUUUCCAUGAAGCUGUUU,0.264
GUGCCUGGUGCAUUCCGAGGCUACAUCCAGGCUCAUGGAAGGAGUGUAGUAUUCAUUUAGCCAUGUCUGCCAUGGGUCCAGAAAUGGGAAAGGGAAUUGCUGUCCUUGCC,0.936
GUUGUGUUUUAUGUUCUUAGAGGACAUAUUUUUGAUGAGGCCAAAACUGCUGUUCUGUUUCGUUGAUUGCAUCGAGCAUGUUUCUAUAUAAGGUGGGUACUCUGAGCAGC,13.9
CCAUUGAACUUAAUCUGUGUGGCUUCCAGCCCUCCCUUUACCAAAAGGGUCAAUGGACCUUUCUUUGCACUGUGUGACUUAAUCAACUAUAAAAGCUUACAAUUAGUCUU,0.42
UUUCAUUUUUUUCCUUUGAUUGAUACAACACUAUAAUUUUCAUUUCAGUUCCUUAGUCGUGUCUACUUACCUAGCAGUUUAGAAACUGUCAGUCAUGUAACUGGCAAGGA,0.817
UACCCAGCUUUCUUUUUAAUACAAAUGUUAUUUAUAGUUUACAAUGAAUGCACUGCAUAAAAACUUUGUAGCUUCAUUAUUGUAAAACAUAUUCAAGAUCCUACAGUAAG,0.606
UCUGUUCAGCCUUUCAUCUAUCCAUCCUUCCUCUUUAUUGGUAGAAGAAACAGUGGAGAGUAGCCACUUCUGGUUCUAGCACUUCUCUUUUGUUAAGAUAGGGUUUGGAU,0.294

# Block 2
# Target: Prothrombin, mature alpha-thrombin (F2, Homo sapiens, UniProt P00734)
# Technique: aptamer microarray, sandwich
# Molecule type: DNA with 2'F-ANA
# Medium: in vitro
# Tested at: 200 nM
# Setting: whole 15-mer aptamer, many near background
# Together with: Cy3 exosite-II aptamer, 400 nM
# Reading: higher = stronger binding
# Sequence: GGTTGGTGTGGTTGG
Modification,mean fluorescence intensity
2'F-ANA at 1 2 3 6 7 9 10,65.4 a.u.
2'F-ANA at 4 5 7 9 11 14,68.2 a.u.
2'F-ANA at 2 3 6 9 11 12 13 14,339 a.u.
2'F-ANA at 1 2 3 7 8 9 13 14,99.4 a.u.
2'F-ANA at 2 7 8 9 10 13 14 15,87.7 a.u.
2'F-ANA at 1 2 4 5 6 11 12,80.5 a.u.
2'F-ANA at 3 6 7 8 11 12 13 14 15,581 a.u.
2'F-ANA at 1 2 5 6 7 11 12 15,79.3 a.u.
2'F-ANA at 2 3 6 9 10 13 14 15,238 a.u.
2'F-ANA at 1 3 4 7 10 12 13 14 15,115 a.u.
2'F-ANA at 4 6 8 12 15,456 a.u.
2'F-ANA at 1 3 8 9 10 13 14,59.7 a.u.
2'F-ANA at 3 4 6 8 10 11 14,170 a.u.
2'F-ANA at 1 3 5 8 9 10 13 15,89.5 a.u.
2'F-ANA at 1 2 3 6 8 10 14 15,53.6 a.u.
2'F-ANA at 1 2 3 8 9 13,182 a.u.
2'F-ANA at 5 10 12 15,72.3 a.u.

# Block 3
# Target: Ras GTPase-activating protein-binding protein 1, full length (G3BP1, Homo sapiens, UniProt Q13283)
# UniProt Q13283, sequence (whole entry, looked up): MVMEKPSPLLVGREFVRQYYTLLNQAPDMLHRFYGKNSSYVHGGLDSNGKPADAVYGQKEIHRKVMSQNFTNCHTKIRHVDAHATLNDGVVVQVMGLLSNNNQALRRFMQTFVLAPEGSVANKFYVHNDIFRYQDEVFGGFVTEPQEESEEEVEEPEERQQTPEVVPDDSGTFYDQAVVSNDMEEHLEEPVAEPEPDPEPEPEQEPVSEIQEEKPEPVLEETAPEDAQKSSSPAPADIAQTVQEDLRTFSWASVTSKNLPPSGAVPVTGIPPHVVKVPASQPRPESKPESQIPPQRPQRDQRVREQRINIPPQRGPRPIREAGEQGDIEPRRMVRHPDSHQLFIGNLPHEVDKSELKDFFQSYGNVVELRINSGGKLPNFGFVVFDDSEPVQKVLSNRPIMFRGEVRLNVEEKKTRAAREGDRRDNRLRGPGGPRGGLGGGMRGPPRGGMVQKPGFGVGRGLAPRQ
# Technique: RNA Bind-n-Seq
# Molecule type: RNA
# Medium: in vitro
# Tested at: 200 nM
# Setting: whole 134-nt RNA, ends assumed
# Together with: 150 mM KCl
# Relative to: input library
# Reading: higher = stronger binding
# Constant ends, left off below: GGGAGUUCUACAGUCCGACGAUC … UGGAAUUCUCGGGUGUCAAGG
Sequence,log2 enrichment
ACCAUGCAGGUGGGCAUCUUUGGGAAGUGGGGCAAGGGGGGGAUAGGGAGGGGGGUAACACUUUGGUAACAGGUGGUCCCAGGUCGUUUC,0.893
CAAGUCCUGUGCUACACAUCGUAUGUACCGAAUCGGUUUGGGGUUUGGGUUUGGGAAAGUAUUAUGUUACGCCGUUCGGAUCUGCACUUC,-0.163
UGGGAGGUGGAUUUUGUUUAUUUUUUUAGCUCAUUUCCCGGGGUGGGAAUUUUUUUUUAAUAUGUGUCAUGAAUAAAGUUGUUUUUGAAA,-0.173
CACAGACAACACGCACCCACACAGACACAGAGGGAAGGCGUUGGGAUGGGGACAGGGUGCACAGCAGGGCGGGGUAGGACCCCAGCCCCU,1.65
AGUCCUGUGCUACACAUCGUAUGUACCGAAUCGGGGAAAAGGGAAAAGGGGAAAAGGAAAGUAUUAUGUUACGCCGUUCGGAUCUGCACU,-0.264
GUCCUGUGCUACACAUCGUAUGUACCGAAUCGGGAAAAAGGGUUUUUUUGGGAAAGGGAAAGUAUUAUGUUACGCCGUUCGGAUCUGCAC,-0.474
UAACUUUAGAGGAGGAUCUGAUGGAUAUGGCAGUGGACGUGGAUUUGGGGAUGGCUAUAACGGGUAUGGAGGAGGACCUGGAGGUGGCAA,0.375
AGUCCUGUGCUACACAUCGUAUGUACCGAAUCGGGGUUUUGGUUUUGGGUUUUGGGGAAAGUAUUAUGUUACGCCGUUCGGAUCUGCACU,-0.396
ACCAUGCAGGUGGGCGUCUUUGGGAAGUGGGGCAAGGGGGGGAUAGGGAGGGGGGUAACACUUUGGGAACAGGUGGUCCCAGGUCGUUUC,0.93
GCAGGAAGUAAAAACAAAUGGAAAUGCUUCGGAUAGUGGCAAAGGUGGGGGUUGCUAAGGAAAGGGUGGGAUGGGAGUGGGUAAAGAGUU,1.12
CACAGACAACACGCACCCACACAGACACAGAGGGAAGGGGUUGGGAUGGGGACAGGGUGCACAGCAGGGCGGGGUAUGACCCCAGCCCCU,1.87
AGGGAGGUGGAUUUUGUUUAUUUUUUUAGCUCAUUUCCAGGGGUGGGAAUUUUUUUUUAAUAUGUGUCAUGAAUAAAGUUGUUUUUGAAA,-0.00312
GCAGGAAGUAAAAACAAAUGGAAAUGCUUCGGAUAGUGGCAGGGGUGGGGGUAAAUAAGGAAAGGGUGGGAUGGGAGUGGGUAAAGAGUU,0.821
CACAGACAACACGCACCCACACAGACACAGAGGGAAGGGGUUGGGAUGGGGACAGGGUGCACAGCAGGGUGGGGUAGGACCCCAGCCCCU,1.82

# Block 4
# Target: Histone acetyltransferase KAT6A, winged helix 1, GST fusion (KAT6A, Homo sapiens, UniProt Q92794, residues 1-85)
# Technique: protein binding microarray
# Molecule type: double-stranded DNA, one strand shown
# Medium: in vitro
# Tested at: not given
# Setting: 8-mer, flanks averaged, mean of 2 arrays, mostly near background
# Relative to: not given
# Reading: higher = stronger binding
# Target sequence (chain): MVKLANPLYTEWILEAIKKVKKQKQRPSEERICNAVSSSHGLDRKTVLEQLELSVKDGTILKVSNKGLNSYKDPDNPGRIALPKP
Sequence,E-score
ATAACTAG,-0.0128
ACCAAACA,-0.0478
GCGAGCGC,0.385
CGAAAAGA,-0.187
ATTACAGA,-0.05
GTGGGGCA,-0.1
GGCCCGCC,0.363
AAGCGAAG,-0.0269
CTAGATAA,-0.189
ACCGTTTA,0.185
AACCGCAT,0.175
GTCGTGAA,-0.0107
GTTGGACA,-0.0806
ATTGGGCG,0.00732
CTGATTGA,-0.174
CCCCATCC,-0.117
AAATGCAC,-0.168
GCAAGGCA,-0.174
CTCCCCAC,-0.191
CGTACTAC,0.206
AGAAACAC,-0.0553
CAGTAGTA,-0.0528
GGGGGGAC,-0.00562
ACTCAGCT,-0.101
CTATAGGA,0.00485

# Block 5
# Target: Sal-like protein 4, full length isoform B (SALL4, Homo sapiens, UniProt Q9UJQ4-2, residues 1-616)
# Technique: universal PBM
# Molecule type: double-stranded DNA, one strand shown
# Medium: in vitro
# Tested at: not given
# Setting: 8-mer, flanks averaged, mean of replicates
# Reading: higher = stronger binding
Sequence,E-score
CCTTTACA,0.109
AAGTGGCA,-0.0391
ATGCCTTA,0.125
CTAAACAG,0.0146
CCTGTTCC,-0.107
AATAGAGC,0.107
CGAAAGAG,-0.0185
AAAGTTTG,0.183
CCATGAGG,-0.167
CGCCATCC,-0.149
GGGAACCA,-0.215
ATATGGCC,0.00689
AAAGTTAA,0.294
ATGAAATC,0.288
ACTATACC,0.149
GCGAATTA,0.23
AAGCAACG,-0.0622
CTTCGATA,0.224
TCTCCAGA,-0.143
AAACCGAA,0.0999
AGCGTTCC,-0.0971
ATGCCTAG,0.088

# A few entries again (block 4):
Sequence,E-score
ACCAAACA,-0.0478
GCGAGCGC,0.385
CGAAAAGA,-0.187
ATTACAGA,-0.05
GTGGGGCA,-0.1
GGCCCGCC,0.363
AAGCGAAG,-0.0269
CTAGATAA,-0.189
